Experimental data from different studies.
Compare with care: the assays were run in different laboratories. Values joined by “and” are separate records of one study, mostly repeats; a detail may differ. ± marks the error that the study gave.

SMILES	assay	system	setting	AUC(0-inf)
C=CC(=O)NC1CCN(c2ncc3ncnc(Nc4ccc(Oc5ccc6c(c5)ncn6C)c(C)c4)c3n2)CC1	–	male beagle dog, plasma	oral, 3 mg/kg, pentagastrin pretreatment	15.5 µM·h
CCCCCCCCCCCCCCCC(=O)N[C@@H](CCC(=O)NCCCC[C@@H]1NC(=O)[C@H]([C@@H](C)CC)NC(=O)[C@@H](NC(=O)[C@@H]2CCCN2C(=O)[C@H](Cc2ccccc2)NC(=O)[C@H](Cc2c[nH]cn2)NC(=O)[C@@H](NC(=O)[C@H](CC(=O)O)NC(=O)CC(C)C)[C@@H](C)O)CSSC[C@@H](C(=O)N[C@@H](CCCCN)C(N)=O)NC(=O)CNC(=O)[C@H](CCCCN)NC(=O)[C@H](CO)NC(=O)[C@H](CCCNC(=N)N)NC(=O)[C@@H]2CCCN2C(=O)[C@H](CCC(=O)O)NC(=O)[C@H](Cc2ccccc2)NC1=O)C(=O)O	–	healthy volunteers, plasma	subcutaneous, 45 mg single, lyophilised formulation	40600 ± 8900 ng·h/mL
CC(C(=O)NCC(=O)NCC(CNC(=O)CNC(=O)C(C)N1CCN(CC(=O)[O-])CCN(CC(=O)[O-])CCN(CC(=O)[O-])CC1)(CNC(=O)CNC(=O)C(C)N1CCN(CC(=O)[O-])CCN(CC(=O)[O-])CCN(CC(=O)[O-])CC1)CNC(=O)CNC(=O)C(C)N1CCN(CC(=O)[O-])CCN(CC(=O)[O-])CCN(CC(=O)[O-])CC1)N1CCN(CC(=O)[O-])CCN(CC(=O)[O-])CCN(CC(=O)[O-])CC1.[Gd+3].[Gd+3].[Gd+3].[Gd+3] (stereo not shown)	ICP-MS	female cynomolgus monkey, plasma	intravenous bolus, 0.1 mmol/kg, lanthanide mixture, geometric mean	874 µM·h
COc1cc2c3c(n(CCCN4CCOCC4)c(=O)c2cc1OC)-c1cc2c(cc1C3=O)OCO2	–	beagle dog, female, plasma	oral, 1720 mg/m^2, gelatin capsule	6300 ng·h/mL and 2340 ng·h/mL
C[C@@H]1CN(CC(=O)N2CC(C)(C)c3nc(CO)c(Cc4ccc(F)cc4)cc32)[C@@H](CN2CCOC[C@H]2C)CN1	–	cynomolgus monkey, male	oral, 5 mg/kg	592 ± 174 ng·h/mL
CNC(=O)c1ccc(-c2cnc3ncc(Cc4ccc5ncccc5c4)n3n2)cc1F	–	human mild hepatic impairment NCI	oral, 200 mg single dose, geometric mean	6640 ng·h/mL
CCc1nc2c(C)cc(N3CCN(CC(=O)N4CC(O)C4)CC3)cn2c1N(C)c1nc(-c2ccc(F)cc2)c(C#N)s1	–	healthy volunteers, plasma	oral, 1000 mg once daily multiple doses	132000 ng·h/mL
COc1nc(-c2cc(C)c(N[C@@H](C)c3cc(F)cc(F)c3)nn2)ccc1-n1cnc(C)c1	–	cynomolgus monkey, male, plasma	oral, 2 mg/kg	1680 ng·h/mL
COc1ccc(C[C@@H](C)[C@@H](C)Cc2ccc(OC)c(OC)c2)cc1OC	–	beagle dog, male, plasma	oral, 100 mg/kg/day, day 1	17000 ng·h/mL
Cc1nc(-c2cnc(NC(C)C)n(C)c2=O)ccc1Oc1ccnc(-c2cnn(C)c2)c1	–	Beagle dog, male, plasma	oral, 30 mg/kg, crossover study, mean	67300 ng·h/mL

For quick reference, copied from above:
SMILES	assay	system	setting	AUC(0-inf)
CC(C(=O)NCC(=O)NCC(CNC(=O)CNC(=O)C(C)N1CCN(CC(=O)[O-])CCN(CC(=O)[O-])CCN(CC(=O)[O-])CC1)(CNC(=O)CNC(=O)C(C)N1CCN(CC(=O)[O-])CCN(CC(=O)[O-])CCN(CC(=O)[O-])CC1)CNC(=O)CNC(=O)C(C)N1CCN(CC(=O)[O-])CCN(CC(=O)[O-])CCN(CC(=O)[O-])CC1)N1CCN(CC(=O)[O-])CCN(CC(=O)[O-])CCN(CC(=O)[O-])CC1.[Gd+3].[Gd+3].[Gd+3].[Gd+3] (stereo not shown)	ICP-MS	female cynomolgus monkey, plasma	intravenous bolus, 0.1 mmol/kg, lanthanide mixture, geometric mean	874 µM·h
